Published values pooled from the literature.
Lines come from different studies, so protocols differ. Numbers after ± are the reported error.
CLPP: ATP-dependent Clp protease proteolytic subunit, mitochondrial (CLPP, Homo sapiens, UniProt Q16740)
Kir3.1/Kir3.4: Kir3.1/Kir3.4 (Homo sapiens, UniProt P48544+P48549)
USP16 ZnF-UBD domain: Ubiquitin carboxyl-terminal hydrolase 16, ZnF-UBD domain (USP16, Homo sapiens, UniProt Q9Y5T5)
OPRM1: Mu-type opioid receptor (OPRM1, Homo sapiens, UniProt P35372)

| SMILES | tested on | test | test system | setting | scale | measurement | value |
| --- | --- | --- | --- | --- | --- | --- | --- |
| Cc1ccn(-c2nc(NC3CCC(F)(F)CC3)cc(N3CCOCC3)n2)n1 | Calm1/Kcnn2 (Rattus norvegicus, UniProt P0DP29+P70604) | activator, inside-out patch clamp |  | rat channel |  | EC50 | 5.1 ± 1 µM |
| Cn1cc(-c2ccc(-c3cncc(Cl)c3N3CCC4(CCNC4=O)CC3)cc2)cn1 | COLO 205 | gene expression, microarray, item: MXI1 mRNA |  | concentration not given, 2 h | baseline: untreated cells | log2 fold change | 2.2 |
| C[C@H]1C2=C(CCN1Cc1cccc(C#N)c1)N1CCN=C1N(Cc1ccc(Br)cc1)C2=O | CLPP | peptidase activity, activator |  | added: Ac-WLA-AMC |  | EC50 | 0.739 ± 0.0104 µM |
| CCc1cc(NC(=O)COc2cc(Cl)ccc2Cl)n(C2CCOCC2)n1 | Kir3.1/Kir3.4 | activator, thallium flux | HEK293 |  |  | EC50 | 0.49 µM |
| CC(C)C[C@H](NC(=O)C[C@H](O)[C@H](CC(C)C)NC(=O)[C@H](Cc1c[nH]cn1)NC(=O)CNC(=O)[C@@H](NC(=O)[C@H](C)NC(=O)[C@H](Cc1c[nH]c2ccccc12)NC(=O)[C@H](CCC(N)=O)NC(=O)[C@@H](Cc1ccccc1)NC(=O)COCCOCCNC(=O)CCC(C(=O)O)N1CCN(CC(=O)O)CCN(CC(=O)O)CCN(CC(=O)O)CC1)C(C)C)C(N)=O (stereo partly shown) [lutetium-177 labelled] |  |  | BALB/c nu/nu mice, small intestine | 500 pmol, 1 h, added: PA 300 µg |  | tissue uptake | 0.4 ± 0.2 %ID/g |
| O=C(COc1ccc(C(F)(F)F)cc1C(F)(F)F)Nc1cc(C2CC2)nn1CC(F)(F)F | Kir3.1/Kir3.4 | activator, thallium flux | HEK293 |  |  | EC50 | 2.15 µM |
| Cc1nn(-c2nc3c(F)cc(F)cc3s2)c(O)c1C(c1cccc(C(F)(F)F)c1)c1c(C)nn(-c2nc3c(F)cc(F)cc3s2)c1O | Cyclic GMP-AMP synthase, catalytic domain; with DNA (CGAS, Homo sapiens, UniProt Q8N884) | cGAS-DNA phase separation, inhibitor |  |  |  | EC50 | 4.7 µM |
| COc1cc(Nc2ncc3c(n2)-c2ccc(Cl)cc2C(c2c(F)cccc2OC)=NC3)ccc1C(=O)O | Adenylate kinase 2, mitochondrial (Homo sapiens, UniProt P54819) | binding, kinobead competition | MV4-11 cell lysate |  |  | EC50 | 0.215 µM |
| CC[C@@H](C)[C@@H](NC(=O)[C@@H](C)NC(=O)[C@@H](CCCNC(=N)N)NC(=O)[C@@H](Cc1c[nH]c2ccccc12)NC(=O)[C@@H](CCC(N)=O)NC(=O)[C@H](N)C(C)C)C(=O)N[C@H](CCCNC(=N)N)C(=O)N[C@@H](C(=O)N[C@H](CCCNC(=N)N)C(=O)N[C@H](CCCCN)C(=O)N[C@@H](C(=O)N[C@H](CCCNC(=N)N)C(N)=O)[C@H](C)CC)C(C)C | Mrgprb2 (Mus musculus, UniProt Q3KNA1) | mast cell degranulation, agonist, item: β-hexosaminidase release | peritoneal mast cells, wild-type mice |  |  | EC50 | 1.33 µM |
| COc1cc2oc(=O)cc(C)c2cc1CCC(=O)O | USP16 ZnF-UBD domain |  |  |  |  | Kd | 535 µM |
| O=C(COc1cc(Cl)ccc1Cl)Nc1cc(C2CC2)nn1C1CCC(F)(F)CC1 | Kir3.1/Kir3.4 | activator, thallium flux | HEK293 |  |  | EC50 | 0.734 µM |
| C[C@H]1C[C@@H](N2C(=N)N[C@](C)(c3cccc(NC(=O)c4cccc(C#N)c4)c3Cl)CC2=O)CCO1 | OPRM1 | functional response, agonist | cells |  |  | EC50 | 16 µM |
| COc1ccc(Br)c(CNc2cccnc2)c1 | Melatonin receptor type 1B (Mtnr1b, Mus musculus, UniProt Q8CIQ6) | cAMP accumulation, agonist, GloSensor cAMP | HEK cells transiently transfected | added: isoproterenol |  | EC50 | 0.00589 µM |
| CCc1cc(NC(=O)COc2cccc(Cl)c2Cl)n(C2CCOCC2)n1 | Kir3.1/Kir3.4 | activator, thallium flux | HEK293 |  |  | EC50 | 0.49 µM |
| NCCCNCCCCNCCCN | MFS-type transporter SLC18B1 (SLC18B1, Homo sapiens, UniProt Q6NT16, D140A) | binder |  |  |  | Kd | 146 µM |
| Cc1cc(NC(=O)C2CCc3ccccc3O2)n(C2CCS(=O)(=O)C2)n1 (stereo not shown) | Kir3.1/Kir3.4 | activator, thallium flux | HEK293 |  |  | EC50 | > 10 µM |
| CCn1c(-c2nc3ccc(C(=O)N4CCCC(N)C4)cc3n2C)cc2ccccc21 (stereo not shown) | OPRM1 | agonist, GTPγS binding |  |  |  | EC50 | > 100 µM |

| SMILES | tested on | test | test system | setting | scale | measurement | value |
| --- | --- | --- | --- | --- | --- | --- | --- |
| O=C(COc1cccc(Cl)c1Cl)Nc1cc(C2CC2)nn1C1CCC(F)(F)CC1 | Kir3.1/Kir3.4 | activator, thallium flux | HEK293 |  |  | EC50 | 1.04 µM |
| COc1cc(Nc2ncc3c(n2)-c2ccc(Cl)cc2C(c2c(F)cccc2OC)=NC3)ccc1C(=O)NCCOCCOCCNC(=O)COc1cccc2c1C(=O)N(C1CCC(=O)NC1=O)C2=O (stereo not shown) | DnaJ homolog subfamily A member 1 (DNAJA1, Homo sapiens, UniProt P31689) | binding, kinobead competition | MV4-11 cell lysate |  |  | EC50 | > 30 µM |
| Cc1cnc(C)c(C)n1 | uncharacterized protein (Puma concolor, UniProt A0A6P6H1F7) | cAMP, agonist | HEK293 transfected with uncharacterized protein |  |  | EC50 | 346 ± 19.1 µM |
| C[C@@H]1CC2=C(CN1Cc1cccc(C#N)c1)C(=O)N(Cc1ccc(F)c(C(F)(F)F)c1)C1=NCCN12 | CLPP | peptidase activity, activator |  | added: Ac-WLA-AMC |  | EC50 | 0.0599 ± 0.0009 µM |
| CCc1cnc(C)c(C)n1 | uncharacterized protein (Mus musculus, UniProt A0A140T8K4) | cAMP, agonist | HEK293 transfected with uncharacterized protein |  |  | EC50 | 355 ± 26.7 µM |
| CC(=O)c1cc([N+](=O)[O-])c(Sc2cccc(Cl)c2Cl)s1 | Ubiquitin carboxyl-terminal hydrolase 21 (USP21, Homo sapiens, UniProt Q9UK80) | enzyme activity, inhibitor |  |  |  | EC50 | > 50 µM |
| Clc1ccccc1C(c1ccccc1)(c1ccccc1)n1ccnc1 | Nuclear receptor subfamily 1 group I member 2 (NR1I2, Homo sapiens, UniProt O75469) | agonist |  | 120 min, pH 7.5 |  | EC50 | 1.85 µM |
| COc1cc2c(cc1OC)[C@H]1C[C@@H](O)[C@H](CC(C)C)CN1CC2 | MFS-type transporter SLC18B1 (SLC18B1, Homo sapiens, UniProt Q6NT16) | binding, radioligand binding |  |  |  | Kd | 6.53 µM |
| CCc1cc(NC(=O)COc2ccc(Cl)cc2Cl)n(CC(F)(F)F)n1 | Kir3.1/Kir3.4 | activator, thallium flux | HEK293 |  |  | EC50 | 1 µM |
| Cn1cc2c(C(=O)O)ccc(NS(=O)(=O)c3ccc(OCC4CCC4)c(Cl)c3)c2n1 | OPRM1 | agonist |  |  |  | EC50 | > 10 µM |
| O=C(O)CCC(=O)Nc1cccc2ccccc12 | USP16 ZnF-UBD domain |  |  |  |  | Kd | > 1000 µM |
| CC#CCC(C)[C@H](O)/C=C/[C@@H]1[C@H]2c3cccc(CCCC(=O)O)c3O[C@H]2C[C@H]1O (mixture of isomers) | Prostacyclin receptor (PTGIR, Homo sapiens, UniProt P43119) | agonist, cell-based |  |  |  | EC50 | 0.771 µM |
| CCc1nccnc1OC | uncharacterized protein (Puma concolor, UniProt A0A6P6H1F7) | cAMP, agonist | HEK293 transfected with uncharacterized protein |  |  | EC50 | 318 ± 35.1 µM |
| CCCCC[C@H](O)/C=C/[C@H]1[C@H](O)CC(=O)[C@@H]1C/C=C\CCCC(=O)O | Prostaglandin E2 receptor EP1 subtype (PTGER1, Homo sapiens, UniProt P34995, S69A) | IP1 accumulation, agonist | AD293 | EP1 S69A mutant |  | EC50 | 0.00203 µM |
| C[C@@H]1CC2=C(CN1Cc1cccc(C#N)c1)C(=O)N(Cc1ccc(Br)c(F)c1)C1=NCCN12 | CLPP | peptidase activity, activator |  | added: Ac-WLA-AMC |  | EC50 | 0.0357 ± 0.003 µM |
| O=C(COc1cccc(Cl)c1Cl)Nc1cc(C2CCC2)nn1C1CCOCC1 | Kir3.1/Kir3.4 | activator |  |  |  | EC50 | 10 µM |
| CCNC(=O)N1CCN(c2nc(NC3CCN(C(=O)[C@@H](CCc4ccc(OC)cc4)NC(=O)[C@@H]4CCCCN4C(=O)C(=O)C(C)(C)CC)CC3)nc(N(Cc3cnn(C)c3)C3CC3)n2)CC1 | FKBP1A/BRD9, BRD9 bromodomain (Homo sapiens, UniProt P62942+Q9H8M2) | FKBP12 recruitment, NanoBiT | HEK-293T | 2 h, BRD9 bromodomain |  | EC50 | 0.82 µM |
